Published values pooled from the literature.
Each numbered part is a random draw from the data of one study; scales do not carry over between parts. Changes are numbered by the printed parent chain.

Block 1
Target: Prothrombin, mature alpha-thrombin (F2, Homo sapiens, UniProt P00734)
Method: aptamer microarray, sandwich
Molecule type: DNA with 2'F-ANA
Sample: in vitro
Tested at: 200 nM
Notes: whole 15-mer aptamer, many near background
Added: Cy3 exosite-II aptamer, 400 nM
Reading: higher = stronger binding
Quantity: mean fluorescence intensity
Strand: GGTTGGTGTGGTTGG
Modification = 2'F-ANA at 3 5 6 7 8 9 10 11; result = 53.2 a.u.
Modification = 2'F-ANA at 1 4 5 8 9 10 13; result = 69.6 a.u.
Modification = 2'F-ANA at 1 3 4 5 7 9 10 11 12 13; result = 53.3 a.u.
Modification = 2'F-ANA at 3 5 7 14; result = 57.1 a.u.
Modification = 2'F-ANA at 1 2 4 5 7 8 11 12; result = 88.9 a.u.
Modification = 2'F-ANA at 4 8 9 10; result = 86.4 a.u.
Modification = 2'F-ANA at 1 2 3 4 8 9 11 12 14; result = 78.9 a.u.
Modification = 2'F-ANA at 2 5 7 8 9 10 12 13 14 15; result = 49 a.u.
Modification = 2'F-ANA at 4 7 9 10 11 13; result = 76.1 a.u.

Block 2
Target: Histone acetyltransferase KAT6A, winged helix 1, GST fusion (KAT6A, Homo sapiens, UniProt Q92794, residues 1-85)
Method: protein binding microarray
Molecule type: double-stranded DNA, one strand shown
Sample: in vitro
Tested at: not given
Notes: 8-mer, flanks averaged, mean of 2 arrays, mostly near background
Reference: not given
Reading: higher = stronger binding
Quantity: E-score
Target sequence (chain): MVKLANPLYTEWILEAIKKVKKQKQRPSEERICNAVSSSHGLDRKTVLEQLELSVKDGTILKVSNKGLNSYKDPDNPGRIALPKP
Strand = AAATATAA; result = -0.0941
Strand = GCCATAAC; result = -0.0423
Strand = TGCATTAA; result = -0.142
Strand = GTCGCCCA; result = 0.144
Strand = CGGAACAA; result = 0.163
Strand = GACTTTAA; result = -0.15
Strand = AATCACGC; result = 0.00649
Strand = AACGGAGG; result = 0.152
Strand = ATTTGCCG; result = 0.262
Strand = CAAGCCTG; result = -0.121
Strand = TCCGAGCA; result = -0.0503
Strand = GCGCACAA; result = 0.329
Strand = ACATACAC; result = -0.127
Strand = GATTGCAA; result = -0.271

Block 3
Target: CCNE2, cyclin fold, Cln2 fusion (human)
Method: yeast growth competition, sequencing
Sample: yeast
Notes: weak parent motif
Reference: not given
Reading: higher = stronger binding
Quantity: normalised enrichment score
Starting sequence: SLBP docking peptide (human); ARYKRKLLINDFG
Change = I9F; result = 1.67
Change = D11N; result = 0.697
Change = K6L; result = 1.09
Change = K6R; result = 0.678
Change = L8M; result = 1.25
Change = R5A L7A; result = 0.549
Change = D11A; result = 0.928
Change = L8Q; result = 0.831
Change = L8A; result = 0.906
Change = N10H; result = 0.611
Change = K4C; result = 0.0186
Change = L8K; result = -0.17
Change = Y3N; result = 0.75

Other studies, line by line
Substance = PhoQ, residues 284 288 289 292 302 303 ALASRC; target = PhoP, residues 12 14 15 18 19 NHFRA (Escherichia coli, UniProt P23836); assay = Sort-seq, measured: YFP reporter; test system = E. coli; conditions = PhoQ-PhoP variant library, added: 10 µM Mg2+; how to read = reference: high Mg2+ state, higher = stronger signaling; quantity = fold induction; result = 1.39

A few entries again (block 1):
Modification = 2'F-ANA at 4 8 9 10; result = 86.4 a.u.
Modification = 2'F-ANA at 1 3 4 5 7 9 10 11 12 13; result = 53.3 a.u.
Modification = 2'F-ANA at 1 2 3 4 8 9 11 12 14; result = 78.9 a.u.
Modification = 2'F-ANA at 4 7 9 10 11 13; result = 76.1 a.u.
Modification = 2'F-ANA at 1 2 4 5 7 8 11 12; result = 88.9 a.u.
